Assay results collected from several papers.
A part holds a random share of what one study measured.

Block 1 — technique: protein binding microarray; form: double-stranded DNA, one strand shown; sample: in vitro; concentration: not given; baseline: not given; reading: higher = stronger binding; measurement: E-score
Target: Histone acetyltransferase KAT6A, winged helix 2, GST fusion (KAT6A, Homo sapiens, UniProt Q92794, residues 85-181)
Notes: 8-mer, flanks averaged, mean of 2 arrays, mostly near background
Target sequence (chain): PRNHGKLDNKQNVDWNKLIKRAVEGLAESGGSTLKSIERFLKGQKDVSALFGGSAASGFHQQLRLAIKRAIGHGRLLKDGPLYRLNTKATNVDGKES
Oligonucleotide = TCACTAGA; result = -0.0974
Oligonucleotide = ACGGGAAG; result = -0.23
Oligonucleotide = CCGTTATA; result = 0.102
Oligonucleotide = AATGGCGG; result = 0.0513
Oligonucleotide = AAGCCGCC; result = 0.153
Oligonucleotide = GAACGGGC; result = 0.0224
Oligonucleotide = GCCAATCA; result = -0.0934
Oligonucleotide = CGCATAAA; result = 0.061
Oligonucleotide = GTGACGTA; result = -0.161
Oligonucleotide = GAAGGATC; result = -0.124
Oligonucleotide = AAACGGTA; result = 0.0241
Oligonucleotide = ATGAATGA; result = -0.0361
Oligonucleotide = AACGAAAT; result = 0.0873
Oligonucleotide = AGGACGCC; result = 0.0463
Oligonucleotide = CATCCTGC; result = 0.0213
Oligonucleotide = CACCAAGA; result = 0.0616
Oligonucleotide = ATCCCAAC; result = -0.0442
Oligonucleotide = TAGTTAAA; result = 0.108
Oligonucleotide = GACAACGA; result = -0.0767

Block 2 — technique: protein-binding microarray; form: double-stranded DNA, one strand shown; sample: in vitro; concentration: 2540 nM top; notes: 60-bp whole probe; added: salmon DNA 0.4 mg/ml; baseline: random background probes; reading: higher = stronger binding; measurement: fitted relative affinity; all sequences stand within: GCCTAGCAC … GTCTTGATTCGCTTGACGCTGCTG
Target: Interferon regulatory factor 3, full length, phosphomimetic (IRF3, Homo sapiens, UniProt Q14653, residues 1-427, S386D/S396D/S398D/S402D/T404D/S405D)
Target sequence (chain): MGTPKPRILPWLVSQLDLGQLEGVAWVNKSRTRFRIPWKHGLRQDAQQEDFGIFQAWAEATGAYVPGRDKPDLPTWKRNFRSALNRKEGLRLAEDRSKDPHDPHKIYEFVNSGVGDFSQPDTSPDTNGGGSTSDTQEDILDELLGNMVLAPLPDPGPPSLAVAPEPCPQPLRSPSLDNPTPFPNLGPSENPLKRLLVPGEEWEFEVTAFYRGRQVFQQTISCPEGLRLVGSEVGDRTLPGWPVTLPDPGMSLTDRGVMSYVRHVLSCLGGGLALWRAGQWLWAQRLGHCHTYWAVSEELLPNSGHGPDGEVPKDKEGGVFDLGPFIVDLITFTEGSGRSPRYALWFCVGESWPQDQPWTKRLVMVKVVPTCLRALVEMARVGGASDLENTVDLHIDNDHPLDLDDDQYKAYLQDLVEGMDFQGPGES
Oligonucleotide = GACGGTTTCAACTATCGGGACGTGCTA; result = 1.58 z-score
Oligonucleotide = GACGGTTTCCTACTGCGGACGTGCTAG; result = 5.66 z-score
Oligonucleotide = TTAGGTTTCGACTATCGGGTAGTGCTA; result = 2.35 z-score
Oligonucleotide = GTGTATATACTATATGCATGTGTGCTA; result = 0.128 z-score
Oligonucleotide = GACGGACTGCTTAACCTGACGTGCTAG; result = -0.327 z-score
Oligonucleotide = GACGGATTCGACTTTCGGGACGTGCTA; result = 1.29 z-score
Oligonucleotide = GACGGACTGGGTCTCGGGAGGTGCTAG; result = -0.907 z-score
Oligonucleotide = TCATCTGTCCCTCTGTGACTGTGCTAG; result = 0.688 z-score
Oligonucleotide = TCACTTTTATCCCTGACACTGTGCTAG; result = 1.42 z-score
Oligonucleotide = TTAGGTTTCCTTCTACTTTAGTGCTAG; result = 7.88 z-score
Oligonucleotide = GACGGTTCCCCTTTCCTGACGTGCTAG; result = 4.31 z-score
Oligonucleotide = TCAGGACTCGGGTCTCCCACTGTGCTA; result = -0.358 z-score
Oligonucleotide = TTAGATTTCAGTTCCGATTTGTGCTAG; result = 4.18 z-score
Oligonucleotide = TTAGGTATCGTGACTGGGTTAGTGCTA; result = -0.00691 z-score
Oligonucleotide = TTGGTTCTGATCCTTCCCCTCGTGCTA; result = 0.542 z-score
Oligonucleotide = GACGATTTCAGTTCCCAGACGTGCTAG; result = 3.44 z-score
Oligonucleotide = GACGGTTCCGGATTCGGGACGTGCTAG; result = 3.99 z-score
Oligonucleotide = GAGGGACTGGGTTTCGGGACGTGCTAG; result = 0.93 z-score
Oligonucleotide = TTAGGTATCGGTTTTGGTTAGTGCTAG; result = 5.84 z-score
Oligonucleotide = TTAGATTTCAGTCGCGATTAGTGCTAG; result = 0.256 z-score
Oligonucleotide = TGAGAACTGAGTTTCGATTAGTGCTAG; result = 2.61 z-score
Oligonucleotide = TACGGACTGGGGTATCGGGACGTGCTA; result = -0.565 z-score
Oligonucleotide = TTAGGTATCGATTTTCGGTTAGTGCTA; result = 3.43 z-score
Oligonucleotide = TTAGATATAGGGTATCGATTAGTGCTA; result = 0.0355 z-score
Oligonucleotide = GACGTTTTTCATTTTTTTTTGTGCTAG; result = 1.68 z-score

Block 3 — technique: protein-binding microarray; form: double-stranded DNA, one strand shown; sample: in vitro; concentration: 0.8 µM; notes: whole 60-bp probe, no competitor; reading: higher = stronger binding; measurement: fluorescence intensity
Target: Centromere-binding protein 1, full length, N-terminal tag (CBF1, Saccharomyces cerevisiae, UniProt P17106, residues 1-351)
Sequence of UniProt P17106 (whole entry, looked up): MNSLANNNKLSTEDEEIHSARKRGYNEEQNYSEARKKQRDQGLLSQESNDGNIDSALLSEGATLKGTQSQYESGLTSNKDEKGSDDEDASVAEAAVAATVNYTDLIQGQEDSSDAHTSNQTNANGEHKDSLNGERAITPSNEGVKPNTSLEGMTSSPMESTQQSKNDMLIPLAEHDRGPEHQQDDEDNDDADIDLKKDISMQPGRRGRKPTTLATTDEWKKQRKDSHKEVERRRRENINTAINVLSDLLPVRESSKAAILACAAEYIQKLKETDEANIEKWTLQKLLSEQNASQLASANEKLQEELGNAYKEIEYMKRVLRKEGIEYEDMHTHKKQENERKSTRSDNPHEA
Oligonucleotide = GAATCGACCGTTTTAGCCGTGATCATTATCCTATAGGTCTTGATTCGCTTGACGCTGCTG; result = 646 a.u.
Oligonucleotide = GAACGCGGAGAATGCCACATGAGTTTGATGATTTAGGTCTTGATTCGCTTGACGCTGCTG; result = 575 a.u.
Oligonucleotide = CCTAACTACTATACTGGTGGGCTATAGCTTCGTACAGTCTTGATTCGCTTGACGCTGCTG; result = 475 a.u.
Oligonucleotide = CCTAACTACTATAAGTACGTGCAATAGCTTCGTACAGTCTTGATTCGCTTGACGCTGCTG; result = 490 a.u.
Oligonucleotide = CTAGTCTTTATGTAGCACGTTAGTGAAGCATAATTCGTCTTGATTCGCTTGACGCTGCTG; result = 614 a.u.
Oligonucleotide = TGTACGAAGCTATATCACACTATTATAGTAGTTAGGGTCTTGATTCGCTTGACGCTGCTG; result = 521 a.u.
Oligonucleotide = CTACCTCTTTTTTTTCACGTGCTGCGCTGATGTTTCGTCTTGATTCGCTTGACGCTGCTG; result = 3630 a.u.
Oligonucleotide = CTATTCCTCCTGATCCTTGTGATTATAACTATATTCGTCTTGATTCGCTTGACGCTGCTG; result = 595 a.u.
Oligonucleotide = GAATGTTCAAAGAATCTCGTGGTTGTTCTGTTTTAGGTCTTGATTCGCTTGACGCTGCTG; result = 657 a.u.
Oligonucleotide = GAAGACATCCTCAGTCACGGAAGTAATTAAAGGTAGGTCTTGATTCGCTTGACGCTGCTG; result = 645 a.u.
Oligonucleotide = GAAAGTTCTATGTACTGCATCAGAAAATGGCGATAGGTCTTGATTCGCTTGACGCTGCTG; result = 625 a.u.
Oligonucleotide = CTACCTTCGCCATAGTTCGTGATGAAAACTTTATTCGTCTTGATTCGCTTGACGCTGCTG; result = 575 a.u.
Oligonucleotide = CTAAAAACCGCGCGTCACGAAAAAGCAGGAAGCTTCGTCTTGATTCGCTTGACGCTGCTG; result = 643 a.u.
Oligonucleotide = GAAAAGACGACAAACTACCACATGAAGTGGCGGTAGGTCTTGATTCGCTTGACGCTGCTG; result = 490 a.u.
Oligonucleotide = CCTAACTACTATATGGCCGTGTCATAGCTTCGTACAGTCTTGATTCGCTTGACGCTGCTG; result = 526 a.u.
Oligonucleotide = CTAGTAAAATCGCAACACGTGATATTGCTCGTCTTCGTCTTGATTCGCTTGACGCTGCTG; result = 10700 a.u.
Oligonucleotide = CTAAATTGTTTCAACCTCATGACCCCTGTCTTGTTCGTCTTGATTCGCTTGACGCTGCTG; result = 676 a.u.
Oligonucleotide = CTAGGGCGAAGAGGTCACGACCTATTTTTTCTTTTCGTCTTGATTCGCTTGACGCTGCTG; result = 1020 a.u.
Oligonucleotide = GAAGAGAAACTGAACGGGGTGACGCACTGCAAATAGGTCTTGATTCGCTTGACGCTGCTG; result = 515 a.u.
Oligonucleotide = GAAAGTTTCAGGTGTTGCGTGGAATGCCCCTGCTAGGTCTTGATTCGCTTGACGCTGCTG; result = 516 a.u.
Oligonucleotide = CTAGAGAACCATCATCATGTCTCTCCTCAACCTTTCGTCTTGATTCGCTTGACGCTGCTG; result = 535 a.u.
Oligonucleotide = GAATCCAAGAACTACCTCGTGCCATACCTGTTATAGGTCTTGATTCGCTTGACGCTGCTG; result = 712 a.u.

Block 4 — technique: RNA Bind-n-Seq; form: RNA; sample: in vitro; concentration: 365 nM; baseline: no-protein control; reading: higher = stronger binding; measurement: RBNS enrichment (R)
Target: RNA binding protein fox-1 homolog 2, RRM domain, GST-SBP tag (RBFOX2, Homo sapiens, UniProt O43251-10, residues 100-194)
Notes: natural RNA segment, single round, ends assumed
Residues (chain): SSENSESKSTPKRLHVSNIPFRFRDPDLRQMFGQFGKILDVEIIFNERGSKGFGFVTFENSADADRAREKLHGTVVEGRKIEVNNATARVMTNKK
Oligonucleotide = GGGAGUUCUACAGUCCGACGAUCGUGUGUGUAUGUAUAUGAUACAUAAUAUCACACACACACAAAGUUCUUUUUAGCUAUUCCUACAUACUUGUGUGUCAGCCCAUGUAUGUAGGUGUGACCGAUUUCAAGCAUGGAAUUCUCGGGUGCCAA; result = 0.369
Oligonucleotide = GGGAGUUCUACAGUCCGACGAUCUUCUGUUCAGCUGGGGUAGAGUGAGGAUGAAAAGUCAGCCACCACUCUGUGGCAGGGUUGCUGGGUGGGAACAGGGAUUUUAUUUAGACUCAGCUAGAUCGUGUGAGAAGUGGAAUUCUCGGGUGCCAA; result = 2.03
Oligonucleotide = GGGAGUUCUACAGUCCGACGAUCUUCCCACUGAGCCUGUGCUUGCAUGACUACAUUGAGGAGAGAGAUGGUACCGGGGGUGGGGCUGUCACAACUGAAAACCCUCCAGCUGGAAUGGACAAUGUGCCCCCAACUGGAAUUCUCGGGUGCCAA; result = 2.99
Oligonucleotide = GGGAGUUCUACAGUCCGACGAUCUUUUGCUGGCCUUAACUGGUAUCAAACGCUGUCAUUGAGAUGUUUUCAAAGAACAUUGAGUUGUAUUUAAUCAGCGUGUACUCCAUUUGCAUUGAAGCAUUAAAAAUUAUUGGAAUUCUCGGGUGCCAA; result = 0.495
Oligonucleotide = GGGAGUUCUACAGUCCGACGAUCUUCCUGGGGGCGUGGCCAAGCCCUCCUCUUCCCAGAAUUGGCCCGGGGCCUUCAAUUUACGUUCUUUACACUACGGGGACUGGGGUCGUCUUUGCCCACGUCCCGACAACUGGAAUUCUCGGGUGCCAA; result = 0.55
Oligonucleotide = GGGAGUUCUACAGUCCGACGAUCGCUGGGUUCUGUGAAGUUACGUAUUUAUUGAGCUUUUGGUUCUUUUAUAAAGACUUGUCUAGACUCCCUGGGAAGAGUCCUUUGCUUUGGGGCCCAGUGACUCGGGGCACUGGAAUUCUCGGGUGCCAA; result = 0.408
Oligonucleotide = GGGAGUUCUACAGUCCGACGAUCAGGAGGGUUUUGUUCUGUCUGUGUCGCCUCUCCGCCGCACAGAAUCGAUGUGUGUGAUAUUCAGAGACUGGAGGAGCUGCUGACAUUAUCCUGUGUUUAGAUGCUUUAAUUGGAAUUCUCGGGUGCCAA; result = 2.84
Oligonucleotide = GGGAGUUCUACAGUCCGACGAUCGUGGAUUAAUGUCAAUGUUAAUCAGCCCCUCAAAGGGAGAGAAAAGCUGGACCUUUUCCCUUGCUGUACCAUAUUCAGCAUUUGAUUUCCAUGGGCCCCACCAUUUAUGUUGGAAUUCUCGGGUGCCAA; result = 0.301
Oligonucleotide = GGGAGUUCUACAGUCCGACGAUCGUGAACUCAGUAUGCAUGUGUGAAUGCUGAACUGCAGGAGUGGUGUUGAGGCGACCGAGAAGAUCCACGCAGCCAUCUUGGGUUUUGGUGAUGACGUCAGUCUAAUGAGUUGGAAUUCUCGGGUGCCAA; result = 22.8
Oligonucleotide = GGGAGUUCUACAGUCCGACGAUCGUGCAGUCUCCAAAGCUUGACGUUGCUAAUGACACCUGCCUCGUUGCUUUGCUUAGUUGGCAAAAGCAGGAAAAGAGGUGACAGAGAAUGUUGACUCCAAGGUCCCUAGGUGGAAUUCUCGGGUGCCAA; result = 0.253
Oligonucleotide = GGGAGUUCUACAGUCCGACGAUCGUGAUUGUGACCCAUGAGUGGAGGAACUUUCAGUUCUAAAGCUGAUAAAGUGUGUAGCCAGAAGAGUACUUUUUUUUUUGUAACCACUGUCUUGAUGGCAAAAUAAUUAUUGGAAUUCUCGGGUGCCAA; result = 0.641
Oligonucleotide = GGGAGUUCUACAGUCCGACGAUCGCUCACAGAAACCUUUCAUGUUGUCUGUUUCCAAAAUGGAUUCAAUAAACAACAUUUUGUCCAUGUUACCCUAUUCUCAUGCUGGGUGCCCCAGGGGUGUCUUGAUCGAAUGGAAUUCUCGGGUGCCAA; result = 0.387

Excerpt of the above (block 1):
Oligonucleotide = GTGACGTA; result = -0.161
Oligonucleotide = GAAGGATC; result = -0.124
Oligonucleotide = AAACGGTA; result = 0.0241
Oligonucleotide = ATGAATGA; result = -0.0361
Oligonucleotide = AACGAAAT; result = 0.0873
Oligonucleotide = AGGACGCC; result = 0.0463
Oligonucleotide = CATCCTGC; result = 0.0213
Oligonucleotide = CACCAAGA; result = 0.0616
Oligonucleotide = ATCCCAAC; result = -0.0442
